# Results gathered from unrelated publications.
# Protocols differ between the studies behind these lines. Several values in a cell are separate wells, animals, samples, runs or records. ± marks the error that the study gave.
Compound,cell line,test,system,conditions,how to read,quantity,value
COc1cc(/C=C/C(=O)c2ccc(Br)cc2)ccc1OCc1ccccc1,HEK293 empty vector pcDNA3.1,"cell growth, MTT",,"72 h, 10% FBS",,GI50,28.7 ± 5.4 µM
CC1(C)CC[C@]2(CO)CC[C@]3(C)C(=CC[C@@H]4[C@@]5(C)CCCNC(C)(C)[C@@H]5CC[C@]43C)[C@@H]2C1,primary HFF,"cell viability, CellTiter-Glo",,HCMV AD169 assay setting,,CC50,3.49 µM
CO[C@@H]1[C@H](O)[C@@H](COP(=O)(O)OP(=O)([S-])OP(=O)(S)OC[C@H]2O[C@@H](n3cnc4c(=O)[nH]c(N)nc43)[C@H](O)[C@@H]2O)O[C@H]1n1c[n+](C)c2c(O)nc(N)nc21 (mixture of isomers),human immature dendritic cells,"translation, measured: luciferase",,,,time of maximal expression,17.75 ± 0.05 h
FC(F)(F)c1ccnc(-c2cc(C(F)(F)F)ccn2)c1.FC(F)(F)c1ccnc(-c2cc(C(F)(F)F)ccn2)c1.[Cl-].[Cl-].[Ru+2].c1cnc2c(c1)c1nc[nH]c1c1cccnc12,SK-MEL-28,resazurin,,"concentration not given, normoxia, visible light",,photocytotoxicity,inactive
O=C(CC1CCN(C(=O)CC23CC4CC(CC(C4)C2)C3)CC1)NC1CCN(S(=O)(=O)c2cc(C(=O)Nc3cc(F)c(F)c(F)c3)ccc2F)CC1,HepAD38,cytopathic effect,human hepatoma cells,,,maximum non-toxic concentration,2 µmol/L
CC(=O)O[C@@H]1[C@@H](OC(C)=O)[C@H](Sc2sc(C(=O)c3ccc(Cl)cc3)c(N)c2-c2nc3ccccc3s2)OC[C@H]1OC(C)=O,BGM,cytotoxicity,,72 h,,maximum non-toxic concentration,80 µg/mL
Cc1nc(C)c(C=[N+]([O-])C(C)(C)C)nc1C,rat primary midbrain neurons,MTT,,"30 to 300 µM, 24 h",,cytotoxicity,not toxic
COC(C)(C)/C=C/C[C@@](C)(O)[C@H]1CC[C@]2(C)[C@@H]1CC[C@@H]1[C@@]3(C)CCC(=O)C(C)(C)[C@@H]3CC[C@]12C,HEK293-A,"cell growth or viability, SRB",,,,IC50,24.5 µM
CC(C)[C@H]1c2ccc(F)cc2CC[C@@]1(CCN(C)CCCc1nc2ccccc2[nH]1)OC(=O)C1CC1,IMR-90,"cell growth or viability, resazurin",,7 h,,IC50,13 µM
COC(=O)c1ccccc1-c1c2ccc(=O)cc-2oc2c1ccc1cccc(OC)c12,CAPAN-1,"cell growth or viability, resazurin",,24 h,,IC50,30.1 µM
CCOC(=O)c1cc(-c2nc3ccccc3s2)c(=O)n(NS(=O)(=O)c2ccccc2)c1N,FRhK-4,trypan blue,,72 h,,maximum non-toxic concentration,110 µg/mL
Cc1[nH][n+]([Pd-2]([Cl])([Cl])[n+]2[nH]c(C)c(CSCc3ccccc3)c2C)c(C)c1CSCc1ccccc1,Jurkat,"cytotoxicity, 7-AAD flow cytometry",,24 h,,IC50,0.42 ± 0.03 µM
O=C(Nc1cc(F)c(F)c(F)c1)c1ccc(F)c(S(=O)(=O)N2CCC(NC(=O)c3ccc(C4CCN(C(=O)CC56CC7CC(CC(C7)C5)C6)CC4)cc3)CC2)c1,HepAD38,cytopathic effect,human hepatoma cells,,,maximum non-toxic concentration,30 µmol/L
CC(C)=CCc1cc([C@@H]2CC(=O)c3c(O)cc(O)c(CC=C(C)C)c3O2)cc(CC=C(C)C)c1O,3T3-L1,MTT,,concentration not given,,viability,80.8 ± 1.2%
CC(=O)OC[C@H]1O[C@@H](Sc2sc(C(=O)c3ccc(Br)cc3)c(N)c2-c2nc3ccccc3s2)[C@H](OC(C)=O)[C@@H](OC(C)=O)[C@H]1OC(C)=O,FRhK-4,,,72 h,,non-toxic concentration,90 µg/mL
CC(=O)[O-].Nc1ccc(C([O-])=NN=Cc2ccc(OCC(=O)Nc3ccc(Cl)cc3)cc2)cc1.[Cu+2],WISH,"cytotoxicity, MTT",,24 h,,IC50,43.3 ± 3.8 µM
COc1ccc(OC)c(/C=C/C(=O)c2ccc3c(c2)OCO3)c1,HEK293 empty vector pcDNA3.1,"cell growth, MTT",,"72 h, 10% FBS",,GI50,8.1 ± 1.3 µM
Cc1[nH][n+]([Pt-2]([Cl])([n+]2[nH]c(C)c(CSCc3ccccc3)c2C)[n+]2[nH]c(C)c(CSCc3ccccc3)c2C)c(C)c1CSCc1ccccc1.Cl,Jurkat,"cytotoxicity, 7-AAD flow cytometry",,24 h,,IC50,0.07 µM
CCOC(=O)c1cc(-c2nc3ccccc3s2)c(=O)n(NS(=O)(=O)c2ccc(Cl)cc2)c1N,FRhK-4,trypan blue,,72 h,,maximum non-toxic concentration,130 µg/mL
Fc1ccccc1/C=C/c1nc2ccccc2nc1N1CCOCC1,HL7702,"cell viability, MTT",,72 h,,IC50,90.2 ± 5.23 µM
[NH-]c1c([I+]c2ccccc2)c(=O)oc2ccccc12,BHK-21,MTT,,,,maximal non-toxic concentration,1 µg/mL
Cc1ccc(C(=O)c2sc(S)c(-c3nc4ccccc4s3)c2N)cc1,FRhK-4,,,72 h,,non-toxic concentration,90 µg/mL
Nc1ccc(C(=O)NN=Cc2ccc(OCC(=O)Nc3ccc(Cl)cc3)cc2)cc1,WISH,"cell viability, MTT",,"24 h, 10% fetal bovine serum",,IC50,25.9 ± 0.6 µM
COc1c(CC=C(C)C)c(O)cc2c1[C@@H]1Oc3c(ccc(O)c3CC=C(C)C)[C@@H]1CO2,3T3-L1,MTT,,concentration not given,,viability,40.5 ± 0.9%
COc1ccc([C@@H]2CC(=O)c3c(O)cc(O[C@@H]4O[C@H](CO[C@@H]5O[C@@H](C)[C@H](O)[C@@H](O)[C@H]5O)[C@@H](O[C@H]5O[C@H](CO)[C@@H](O)[C@H](O)[C@H]5O)[C@H](O)[C@H]4O)cc3O2)cc1O,MRC5,"cell growth or viability, MTS",,"100 µg/mL, 72 h",,viability,62.2%
COc1ccc(C(=O)/C=C/c2ccc3c(c2)OCO3)c(OC)c1,HEK293 empty vector pcDNA3.1,"cell growth, MTT",,"72 h, 10% FBS",,GI50,11.7 ± 1.8 µM
CCCCCCCCCc1nc2cc(Cl)ccc2c(=O)n1CCCN,Jurkat,,,"up to 100 µM, 24 h",,LDH release,≤ 50%
Cc1ccc(S(=O)(=O)Nn2c3c(cc(-c4nc5ccccc5s4)c2=O)CCCCCC3)cc1,BGM,trypan blue,,72 h,,maximum non-toxic concentration,120 µg/mL
CC(=O)O[C@@H]1[C@@H](OC(C)=O)[C@H](Sc2sc(C(=O)c3ccc(Br)cc3)c(N)c2-c2nc3ccccc3s2)OC[C@H]1OC(C)=O,BGM,cytotoxicity,,72 h,,maximum non-toxic concentration,100 µg/mL
Cc1ccc(S(=O)(=O)Nn2c3c(cc(-c4nc5ccccc5s4)c2=O)CCCC3)cc1,BGM,trypan blue,,72 h,,maximum non-toxic concentration,130 µg/mL
O=C(CC12CC3CC(CC(C3)C1)C2)NC12CCC(C(=O)NC3CCN(S(=O)(=O)c4cc(C(=O)Nc5cc(F)c(F)c(F)c5)ccc4F)CC3)(CC1)CC2,HepAD38,cytopathic effect,human hepatoma cells,,,maximum non-toxic concentration,30 µmol/L
Nc1c(C(=O)c2ccc(Cl)cc2)sc(S)c1-c1nc2ccccc2s1,BGM,cytotoxicity,,72 h,,maximum non-toxic concentration,70 µg/mL and 80 µg/mL
CCCCCCCCCCCC(=O)NCCC(=O)N[C@@H](CCCNC(=N)N)C(=O)N[C@@H](CCCNC(=N)N)C(=O)N[C@@H](CCCNC(=N)N)C(=O)N[C@@H](CCCNC(=N)N)C(=O)N[C@H](CCCNC(=N)N)C(=O)N[C@H](CCCNC(=N)N)C(=O)N[C@H](CCCNC(=N)N)C(=O)N[C@H](CCCNC(=N)N)C(=O)N[C@H](CCCNC(=N)N)C(=O)N[C@@H](CCCCNC(=S)Nc1ccc2c(c1)C(=O)OC21c2ccc(O)cc2Oc2cc(O)ccc21)C(N)=O,Jurkat,flow cytometry,,"10 µM, 48 h, loaded 10 min at 37 °C, then washed","relative to: 0 h, higher = more retained",retained fluorescence,~20%
CC(=O)OC[C@H]1O[C@@H](Sc2sc(C(=O)c3ccc(Cl)cc3)c(N)c2-c2nc3ccccc3s2)[C@H](OC(C)=O)[C@@H](OC(C)=O)[C@@H]1OC(C)=O,FRhK-4,,,72 h,,non-toxic concentration,80 µg/mL
CC(C)=CCc1cc([C@@H]2CC(=O)c3ccc(O)c(CC=C(C)C)c3O2)c(O)c(CC=C(C)C)c1O,3T3-L1,MTT,,concentration not given,,viability,26.9 ± 0.9%
NC(COc1ccccc1C(F)(F)F)c1ccccc1 (centres unmarked),normal iPSC cardiomyocytes,kinetic imaging cytometry,,"5 min, pH 7.4",,beating cessation concentration,66 µM
CC(=O)OC[C@H]1O[C@@H](Sc2sc(C(=O)c3ccc(C)cc3)c(N)c2-c2nc3ccccc3s2)[C@H](OC(C)=O)[C@@H](OC(C)=O)[C@@H]1OC(C)=O,FRhK-4,,,72 h,,non-toxic concentration,90 µg/mL
C=CC1=C(C)C2=NC1=Cc1c(C)c(CCC(=O)O)c3[n]1[Sn][n]1c(c(C)c(C=C)c1=C2)=CC1=NC(=C3)C(CCC(=O)O)=C1C,Huh5.15 replicon cells,MTT,,"10 or 20 µM, 48 h",,viability reduction,12 to 19%

# For quick reference, copied from above:
Compound,cell line,test,system,conditions,how to read,quantity,value
COc1ccc(OC)c(/C=C/C(=O)c2ccc3c(c2)OCO3)c1,HEK293 empty vector pcDNA3.1,"cell growth, MTT",,"72 h, 10% FBS",,GI50,8.1 ± 1.3 µM
[NH-]c1c([I+]c2ccccc2)c(=O)oc2ccccc12,BHK-21,MTT,,,,maximal non-toxic concentration,1 µg/mL
CCOC(=O)c1cc(-c2nc3ccccc3s2)c(=O)n(NS(=O)(=O)c2ccc(Cl)cc2)c1N,FRhK-4,trypan blue,,72 h,,maximum non-toxic concentration,130 µg/mL
Cc1ccc(S(=O)(=O)Nn2c3c(cc(-c4nc5ccccc5s4)c2=O)CCCCCC3)cc1,BGM,trypan blue,,72 h,,maximum non-toxic concentration,120 µg/mL
CC(=O)O[C@@H]1[C@@H](OC(C)=O)[C@H](Sc2sc(C(=O)c3ccc(Br)cc3)c(N)c2-c2nc3ccccc3s2)OC[C@H]1OC(C)=O,BGM,cytotoxicity,,72 h,,maximum non-toxic concentration,100 µg/mL
COc1c(CC=C(C)C)c(O)cc2c1[C@@H]1Oc3c(ccc(O)c3CC=C(C)C)[C@@H]1CO2,3T3-L1,MTT,,concentration not given,,viability,40.5 ± 0.9%
